# Experimental data collected from several papers.
# Each numbered part is a random draw from the data of one study; scales do not carry over between parts.

# Series 1
# Target: RNA binding protein fox-1 homolog 2, RRM domain, GST-SBP tag (RBFOX2, Homo sapiens, UniProt O43251-10, residues 100-194)
# Technique: RNA Bind-n-Seq
# Molecule type: RNA
# Medium: in vitro
# Tested at: 365 nM
# Setting: natural RNA segment, single round, ends assumed
# Baseline: no-protein control
# Reading: higher = stronger binding
# Constant ends, left off below: GGGAGUUCUACAGUCCGACGAUC … UGGAAUUCUCGGGUGCCAA
# Construct (chain): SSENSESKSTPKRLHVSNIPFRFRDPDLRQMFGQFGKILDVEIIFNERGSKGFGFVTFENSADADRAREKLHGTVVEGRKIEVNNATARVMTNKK
Sequence,RBNS enrichment (R)
UUCUAUUAAAGAUUCUAGUGAAACAUAAAGUUGUAUUGUGUUCACCUUAAAACUUAUUGGAUUAUGAAUGUUAUCAGAGUACUGAAUUGUAUCAAUUUGUUUGCAGUUAA,0.989
GAAAACGAUCCAAAGGAGGGCAGAGGCCGCACACCCUGGGCCGAGUCCUGCCCGACUUCCCAGUUAAAUGCUGCUUGUGCCCAGUGCUGCUUUCCCAAGCUCACCCCACC,0.407
UUUCUUUUGCCUCCGAGAUGACCAAAUGCACUUGUGUCUUCUGUUUGUUGCUUGUUGAGUAAGCAGCUGGCACGCCUGUGGAGGAGGAGGCCUUGCCUCAACGUUCCUGG,4.71
GAGGUUAGACUGACAGAAGGUGUGCAGCCUGAUUUACAACCAAACCCUGAACCCUUUUGAAGAACAAUAAAACAUAUUUUACAUGCUUUUUGUGAAUUUCUUCCCCACUC,0.318
CCUGGUGCUGGGGGCAGCCGGUGCGGCCCCAGGGAGUCCCAGCUUAGUAACCUCGCCUCUCUUCUUGAACCACACCGGUCUGCCGCUGCUCAGUGCCCCACCAGGCGUGG,0.368
UCUUUUCCUUCUCCAUCAUCUUAGAGCCAAGUUAUAUGUUCUUGUCUAAUCCAUGUAGCUUUUUGUUCAAUGACUUGAUCAUCUGCUUCCUUUUUGAAUUUUUAACAGAU,0.633
UCCACAUGAGAUUCCAGAAGAAAUGUGUGAUUAAAAUCCAAAUUCAUGCUGUUUUUUUUCUCUGCAACUCGUUAGCAGAGGAAAACAGCAUGUGGGUAUUUGUCGACCAA,0.368
UCCACCUCAGUUCCUCAGGGCUGUUGGCCACCCUAUGACUAACUGGAAGAGGACACGCCAGAGCUUCAGUGAGGUUUCCGAGCCUCUCCCUGCCCAUCCUCACCACUGAG,0.296
AUGCACCGUUUUGAUGCCCAUGCAACAGUGAGGAAGAAAAACCCUCGAGACAUUUUUUCUGUACUCAUAUUUAGAUUCACAAUGGUUGUGUAUCUCUAUAAUGUGAAAUA,0.492
UAACUGAACAUAUUUUUUAGGCAAGUCAGAAAGAGAACAUGGUCACCCAAAAGCAACUGUAACUCAGAAAUUAAGUUACUCAGAAAUUAAGUAGCUCAGAAAUUAAGAAA,0.351
UCAAGUUUCUGGACACCAAGUCUCUGGGAACUAGUGUUUGAUUUUAAAUGGCAUGUGGCCCUUCCUUGUUUCAGUGACUUAGAAAAGUAAAAGCCAUUUAAAAAAGUUAG,0.317
UGAAAGCAAACAAUGGCUUGUAAAGUCAUUUGAAGAGACUUUCCAAUAUGAAUUCAAAAUUCCACUCUUAUCUGAUAGUUUGAGUCAUGGUCUUAGAUACCAGCUACCUA,0.314

# Series 2
# Target: Sal-like protein 4, full length isoform B (SALL4, Homo sapiens, UniProt Q9UJQ4-2, residues 1-616)
# Technique: universal PBM
# Molecule type: double-stranded DNA, one strand shown
# Medium: in vitro
# Tested at: not given
# Setting: 8-mer, flanks averaged, mean of replicates
# Reading: higher = stronger binding
Sequence,E-score
CTCTGAAC,-0.0934
ACTGGCAG,-0.164
GTAGGCAC,-0.231
CAACGTTA,0.133
GTATGCAA,0.133
AGAGATCT,-0.0511
AATCCCAC,-0.142
AATTTCCG,0.063
AATCACAT,0.178
AGCATAGG,-0.181
AACTAGGT,-0.0259
GGTGTAAA,-0.0616
CTCCAGTA,0.0632
CACGACCC,-0.0747
CCGACCCC,-0.331
AGTTGCCG,-0.288
CCCTCGCC,-0.324
ACAGCCAC,-0.11
AAAGGCCG,-0.139
CGATTTAG,0.075
ACGTTGAG,-0.0223
CCAACAGG,-0.257
CGCCACGA,-0.0532
CCAGCGAG,-0.275
GCACTGTA,-0.0923

# Series 3
# Target: Histone acetyltransferase KAT6A, winged helix 2, GST fusion (KAT6A, Homo sapiens, UniProt Q92794, residues 85-181)
# Technique: protein binding microarray
# Molecule type: double-stranded DNA, one strand shown
# Medium: in vitro
# Tested at: not given
# Setting: 8-mer, flanks averaged, mean of 2 arrays, mostly near background
# Baseline: not given
# Reading: higher = stronger binding
# Target sequence (chain): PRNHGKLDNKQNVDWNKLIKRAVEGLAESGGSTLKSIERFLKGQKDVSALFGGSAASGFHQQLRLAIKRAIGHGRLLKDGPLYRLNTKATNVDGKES
Sequence,E-score
CGGTCCAA,0.0534
CCACCAAG,-0.0967
CACGACCC,0.00679
ACTTCCTA,-0.0755
GCAGCTGC,0.231
AGATTACT,0.0533
CGTTGGCA,0.0319
CGCTCGGA,0.0822
CACACTAA,0.046
CGCGCAAC,0.0694
ACTGGTCT,-0.0749
CAAGCGGA,-0.0419
ATTGTCCA,-0.00084
AAGCGGAG,0.123
CCACCTAA,-0.0561
ACTACACA,-0.138
CAGGATCG,-0.0859
GTCAGAAA,-0.0147

# Series 4
# Target: Phosphate system positive regulatory protein PHO4, full length, GST-tagged (PHO4, Saccharomyces cerevisiae, UniProt P07270, residues 1-312)
# Technique: competition protein-binding microarray
# Molecule type: double-stranded DNA, one strand shown
# Medium: in vitro
# Tested at: 2 µM
# Setting: whole 60-bp probe, lowest competitor level
# Together with: Cbf1 competitor, 0.05 µM
# Reading: higher = stronger binding
# Constant ends, left off below: … GTCTTGATTCGCTTGACGCTGCTG
# Target sequence (chain): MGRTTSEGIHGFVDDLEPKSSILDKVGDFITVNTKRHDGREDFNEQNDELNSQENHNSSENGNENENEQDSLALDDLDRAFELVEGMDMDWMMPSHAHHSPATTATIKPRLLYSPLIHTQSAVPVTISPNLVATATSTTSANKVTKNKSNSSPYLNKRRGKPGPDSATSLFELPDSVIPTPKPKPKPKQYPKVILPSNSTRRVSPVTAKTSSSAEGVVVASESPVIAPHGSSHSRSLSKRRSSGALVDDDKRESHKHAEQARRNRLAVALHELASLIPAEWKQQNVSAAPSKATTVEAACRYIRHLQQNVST
Sequence,fluorescence intensity
CTTCTGTAAATTTGTCACAGCACTTGACGCGCCCCG,3470 a.u.
CATGCTTTTGGGTTACCACATTCAACAATAACTCGA,5080 a.u.
TCCGTACTACTGGCGTACGTGCGATGAATTAATCGG,7800 a.u.
TTAAATCGATTGGATCAGGTGAGGAAGTACTCAGTG,3350 a.u.
AAAAGTTTAAACTGGCACGGGCTATTGCGTCTCATA,8730 a.u.
TGCGCAACAACTTGATAAGTGGGTGTATGTCTAGAA,4410 a.u.
AAGGAAACTATAAAGCACGCAATTCCCTATTTGGTT,6680 a.u.
AAAAGTGTCTGGACCTTTTTTTTCTCATGCGATTTT,3330 a.u.
GCCTTAAGATTCTGTCATGCGGGTGTCGATAGCGTC,5730 a.u.
CAGTCACCGTTTGGTAGATAACGACCTAAATCACCC,3970 a.u.
CCTTTTCTGGAGGTACATGTGCGCCCCTGATGAAGA,11900 a.u.
AAAGCGGTAATTTTTCACGTGATGTCAAATATCTAT,12300 a.u.
TGCTTATGGAGGTCCCACGTGCTTTTATCCGACAGC,18400 a.u.
GTCTTGTCTCATTGTCACGTGACTTTCCCCACTTCA,12100 a.u.
AAGTTTGCTGCCCTTCATGTGCTTTTATGTATGCTT,6020 a.u.
CTTTAAGTGCCGGGACAAGTTCCTGGTTATCGCGTT,3440 a.u.
ACAGTGTCAAGCTGGCACGATCGTTCTTGCGCAGTC,6380 a.u.
TGTACCATAGGTGTCCACATGTAAAGACAATGGTTC,6920 a.u.
TGCGCAACAACTTGCCTGGTGGGTGTATGTCTAGAA,5760 a.u.

# Series 5
# Target: Max-binding protein MNT, bHLH-zipper, MAX partner unstated (MNT, Homo sapiens, UniProt Q99583, residues 220-300)
# Technique: protein-binding microarray
# Molecule type: double-stranded DNA, one strand shown
# Medium: in vitro
# Tested at: not given
# Setting: k-mer, scored over probes, only values ≥0.25
# Reading: higher = stronger binding
# Construct (chain): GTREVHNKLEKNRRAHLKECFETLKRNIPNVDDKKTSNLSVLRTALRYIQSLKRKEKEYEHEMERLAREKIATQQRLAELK
Sequence,E-score
AAACGTGG,0.426
CGGGCACG,0.288
CTCCCGCC,0.255
GCCTCCCC,0.278
AGCGTGTG,0.357
CAGTCACA,0.256
GTCGTGCA,0.26
ATGTGAGG,0.256
GCCGCACC,0.308
AGGGCGGG,0.312
GTGTGCGA,0.27
CACGCGAA,0.366
CATGGGAA,0.277
GCACGCGC,0.441
GCCCGCCC,0.338
CGTGCAGA,0.349
AACGTGCA,0.424
CCACGCGG,0.49
CGCGGGGC,0.269
CCGACGCG,0.254
ACCCGCAT,0.279
CGTGGTCA,0.36

# Series 6
# Target: PABPC1L2, full length, GST fusion (mouse, UniProt A0ABA7IW68)
# Technique: RNAcompete
# Molecule type: RNA
# Medium: in vitro
# Tested at: 20 nM
# Setting: 7-mer, probes averaged, single round
# Baseline: mean of 7-mers
# Reading: higher = stronger binding
# Construct (chain): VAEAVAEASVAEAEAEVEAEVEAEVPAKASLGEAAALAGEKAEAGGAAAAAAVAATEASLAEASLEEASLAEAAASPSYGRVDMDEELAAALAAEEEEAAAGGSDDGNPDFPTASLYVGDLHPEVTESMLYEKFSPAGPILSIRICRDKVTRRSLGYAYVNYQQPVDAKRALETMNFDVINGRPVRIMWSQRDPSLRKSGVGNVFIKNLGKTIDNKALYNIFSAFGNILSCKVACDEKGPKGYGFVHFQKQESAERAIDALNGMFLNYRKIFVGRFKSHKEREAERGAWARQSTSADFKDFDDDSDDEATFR
Sequence,7-mer Z-score
GAUACUC,-0.315
CUUGAAG,-0.128
CCUCCGC,-0.456
AAAAUCA,3.8
CGUGCCA,-0.253
GGGCCGA,0.186
GUUCCCG,-0.391
AGCUCUA,-0.0663
GCUAGAG,-0.0464
CUUCAUU,-0.284
CCACACC,-0.356
CCCGUCG,-0.51
GACCCUA,-0.171
CGCUGUC,-0.325
UCAGUUA,-0.271
CGUAUAG,-0.211
UAGGGUU,-0.202
CGUGGUA,-0.079

# Some of these lines once more (series 3):
Sequence,E-score
CCACCAAG,-0.0967
CACGACCC,0.00679
ACTTCCTA,-0.0755
GCAGCTGC,0.231
AGATTACT,0.0533
CGTTGGCA,0.0319
CGCTCGGA,0.0822
CACACTAA,0.046
CGCGCAAC,0.0694
ACTGGTCT,-0.0749
